# Measured values from different studies.
# Every numbered part comes from another study and shows a few of its results, in no order. Changes are numbered by the printed parent chain.

# Series 1 — target: UBE2D1 UBC core domain (UniProt P51668); technique: yeast two-hybrid; matrix: yeast; setting: mostly zero background; baseline: not given; direction: higher = stronger interaction
# B1: ANAPC11 RING domain (UniProt Q9NYG5); chain GICRMAFNGCCPDCKVPGDDCPLVWGQCSHCFHMHCILKWLHAQQVQQHCPMCRQEWKFKE
# B2: RNF31 RING domain (UniProt Q96EP0); chain AFLRRLLAQECAVCGWALPHNRMQALTSCECTICPDCFRQHFTIALKEKHITDMVCPACGRPDLTDDTQLL
# B3: DEF8 RING domain (UniProt Q6ZN54); chain AGRLGCSLTEIHTLFAKHIKLDCERCQAKGFVCELCREGDVLFPFDSHTSVCADCSAVFHRDCYYDNSTTCPKCARLSLRK
# B4: TRIM37 RING domain (UniProt O94972); chain SVESIAEVFRCFICMEKLRDARLCPHCSKLCCFSCIRRWLTEQRAQCPHCRAPLQLRELVN
# B5: MKRN2 RING domain (UniProt Q9H000); chain FAFQASQDKVCSICMEVILEKASASERRFGILSNCNHTYCLSCIRQWRCAKQFENPIIKSCPECRVISEFVIPSV
# B6: RNF183 RING domain (UniProt Q96D59); chain EQQGRELEAECPVCWNPFNNTFHTPKMLDCCHSFCVECLAHLSLVTPARRRLLCPLCRQPTVLASGQP
# B7: RNF187 RING domain (UniProt Q5TA31); chain ALPAGPAEAACALCQRAPREPVRADCGHRFCRACVVRFWAEEDGPFPCPECADDCWQRAVEP
# B8: RNF166 RING domain (UniProt Q96A37); chain GDSGLEAQYTCPICLEVYHRPVAIGSCGHTFCGECLQPCLQVPSPLCPLCRLPFDPKKVDK
# B9: MYCBP2 RING domain (UniProt O75592); chain TSLKQDADDMCMICFTEALSAAPAIQLDCSHIFHLQCCRRVLENRWLGPRITFGFISCPICKNKINHIVLKD
# Residues (chain): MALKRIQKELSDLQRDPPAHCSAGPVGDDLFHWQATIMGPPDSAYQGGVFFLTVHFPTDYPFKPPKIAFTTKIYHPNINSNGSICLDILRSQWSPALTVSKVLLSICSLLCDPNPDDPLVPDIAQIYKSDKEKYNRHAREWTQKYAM
Molecule,lacZ reporter activity
B1 (ANAPC11 RING domain),0
MNDVLENELQCIICSEYFIEAVTLNCAHSFCSYCINEWMKRKIECPICRKDIKSKTYSL (RNF8 RING domain (UniProt O76064)),0
B2 (RNF31 RING domain),0
FVKTVEDKYKCEKCHLVLCSPKQTECGHRFCESCMAALLSSSSPKCTACQESIVKDKVF (TRAF3 RING domain (UniProt Q13114)),0
B3 (DEF8 RING domain),0
AEADPLGRFTCPVCLEVYEKPVQVPCGHVFCSACLQECLKPKKPVCGVCRSALAPGVRAV (RNF114 RING domain (UniProt Q9Y508)),0
B4 (TRIM37 RING domain),0
B5 (MKRN2 RING domain),0
LDAASGHPLVCPLCHGQYERPCLLDCFHDFCTGCLRGRATDGRLSCPLCQHQTLVKGPSG (Rnf207 RING domain (UniProt Q3V3A7)),0
B6 (RNF183 RING domain),0
YPEEVDDDLICHICLQALLDPLDTPCGHTYCTLCLTNFLVEKDFCPMDRKPLVLQHCKK (LNX1 RING domain (UniProt Q8TBB1)),0
RYRQMEERITCPICIDSHIRLVFQCGHGACAPCGSALSACPICRQPIRDRIQIF (MIB2 RING domain (UniProt Q96AX9)),0
B7 (RNF187 RING domain),0
B8 (RNF166 RING domain),0
B9 (MYCBP2 RING domain),0

# Series 2 — technique: RNA Bind-n-Seq; form: RNA; matrix: in vitro; tested at: 365 nM; baseline: no-protein control; direction: higher = stronger binding
# Target: RNA binding protein fox-1 homolog 2, RRM domain, GST-SBP tag (RBFOX2, Homo sapiens, UniProt O43251-10, residues 100-194)
# Setting: natural RNA segment, single round, ends assumed
# Constant ends, left off below: GGGAGUUCUACAGUCCGACGAUC … UGGAAUUCUCGGGUGCCAA
# Construct (chain): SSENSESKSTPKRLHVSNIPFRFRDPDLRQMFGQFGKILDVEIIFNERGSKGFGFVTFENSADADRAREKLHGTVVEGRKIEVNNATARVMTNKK
Oligonucleotide,RBNS enrichment (R)
CAGAGCUAAGACAGGUUGCACGUCACUCUUCUGUUGUGGGUGGUGAUUGUGUCCAAUAUGGUGUCUCGCUUGUGUCCUUAUUGGUCCCUUACCCUUUCUGUGUCCAUUGC,12.2
UUAAAUCUCGCACUACAUCUGAUAUCAGGAAAUAUCUGUGAAGGACUUGGUGAUUACCUGAAAGCCCUUCUCAAGACCGAGUGUACACCACUUUCCCACACUGUGAACUA,0.318
UUUUAAAUGGCAUGAAAUUAGGAAACUUUUGUACAUUUUAUAUACAUUUUGAGAUGAACAGAACAAUGGGCUGAGUUAUAAAAAGCGUGUAUUGAAUUUAAGAAGACAGA,2.81
GACAUUUAUUACAAUGAGCUGCUGCACUCCUACUUUUAUAAAUUUUACUAACAAGUAGACUAAUGUAGACAUUCACAGACGGGAUAGCGCAGAAGCAUCUUCACACGACA,1.05
CUGUUUGUGGUAGGAGAUAACCAGUCUUGUUUGUUUCUUACAUGGCAUUCCUUUGUUGUCCUGGGAUGGUGAGGUAUGUUUAUGGGAAAUGAGCAGAGGCCUGUAGGUAG,0.445
AGCAUGAUGAAUUUUGCAUGGGUGGCCAGCCAGCUAGCCCAUAACUGAUAGAUGCAUUAGAAGUCAGCCAGCGCAUAGGUGCUCCCUCUAUAUUAUGGAGAAAGCAAAAC,1.26
UUAACUCUAGCUUCCAUGUCUGUCUUUAUUACCUUCAUCUUCCUACUUCCUGUCCCACCGGCAUCUCACUUAAUUGAGCCUAAUGUCAGUAUCUGUGUGUGCCAAUGCUG,0.876
CCCAAGAGAGCUCAUUUAAUUGUGCUGUGACAAUGAAGAUUACUGGAAUGAAUUUUUGUCUUUUGUAUUUUAAUCACUUGAGUGAAUCAACUAUUAGCAAAUUCCAUUUG,0.863
AAGGGACAAUUAGCCACUUGCCCCGACACAGGUCAGCAUCAGGGCCAGAUCCCUUGCACACAGCCCAGGGCGCACACCAUAUCACACGUGGCCUUGUCUAGACCCAGUCC,5.65
AACAAUCUUUUGCUAAAAAAAAAAAAAAAGAAAGAAAUUGCUUUAUGGUGAAAACUGUGGGAAGGGUUUUUUUUUUUAAUUUCAACAAAAGAAAAAGUGACCAUCUUACC,0.467
CUGAGGCCGAUCCGGGACCGGCCUCCUUGCGUCUCCCAUUCCCAAGAUUGUCCCGCCUCUGCCAAUCCCCGCCGUCCUUCCAGCCCACGACCUGCCGCGCCGAGGAGCGG,0.673
CCAGUGUAGGAAGCCUCAUGAGAACAGAACCAUUAACAGCCAGAGUGCCAAUGGUGGGAUCAGCAGGAAGACUGAUGUUGGAGACAAUCGGGUGCGGAUUGGUGCUAAUU,0.816

# Series 3 — technique: DHFR PCA, deep sequencing; matrix: yeast; added: (+)-ABA 1.4 µM; baseline: wild-type fitted maximum; direction: higher = stronger binding
# Target: ABI1, truncated, D143A, DHFR fusion (Arabidopsis thaliana)
# Setting: methotrexate growth selection, single substitutions
# Starting sequence: PYL1, truncated, DHFR fusion (Arabidopsis thaliana); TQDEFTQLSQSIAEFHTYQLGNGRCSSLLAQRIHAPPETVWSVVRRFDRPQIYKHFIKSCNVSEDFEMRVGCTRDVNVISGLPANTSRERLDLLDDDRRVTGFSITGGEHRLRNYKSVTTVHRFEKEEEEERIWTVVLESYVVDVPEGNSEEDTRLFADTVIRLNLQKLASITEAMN
Change,relative binding score
K54T,-4.61%
T101M,70.6%
Q10W,33.7%
W41Q,5.92%
D48I,3.29%
D96R,-1.25%
L8S,7.78%
D48T,-1.16%
K54Y,-5.46%
V142Y,-5.17%
I33T,0.659%
L20P,65.7%
M68Q,20.8%
L166Y,-9.96%
I162A,10.3%
R163N,-6.97%
E129M,47.8%

# Series 4 — target: CCND2, cyclin fold, Cln2 fusion (human); technique: yeast growth competition, sequencing; matrix: yeast; setting: weak parent motif; baseline: not given; direction: higher = stronger binding
# Starting sequence: SCAPER docking peptide (human); SNARRSLNFGGST
Change,normalised enrichment score
SNAHRSLNFGGST [R4H],0.0201
SNARRALNFGGST [S6A],0.951
SNARHSLNFGGST [R5H],0.0876
SQARRSLNFGGST [N2Q],0.218
SNARRSLNFGLST [G11L],0.259
SNARRSDNFGGST [L7D],0.391
SNARRSLNFGWST [G11W],0.0458
SNARRSLNFMGST [G10M],0.275
SNARRSLNSGGST [F9S],0.213
SNARRSLNFGNST [G11N],0.293
SNARRSLNFGGPT [S12P],0.864
SNARRSTNFGGST [L7T],0.293
SNARRYLNFGGST [S6Y],0.426
SNARRSLNFGFST [G11F],0.206
STARRSLNFGGST [N2T],0.565
SNARNSLNFGGST [R5N],-0.082
SNACRSLNFGGST [R4C],0.882

# For quick reference, copied from above (series 4):
Change,normalised enrichment score
SNARRALNFGGST [S6A],0.951
SNARHSLNFGGST [R5H],0.0876
SQARRSLNFGGST [N2Q],0.218
SNARRSLNFGLST [G11L],0.259
SNARRSDNFGGST [L7D],0.391
SNARRSLNFGWST [G11W],0.0458
SNARRSLNFMGST [G10M],0.275
SNARRSLNSGGST [F9S],0.213
